Measurements pooled from the literature.
Each numbered part is a random draw from the data of one study; scales do not carry over between parts.
Chain of UniProt P07949 (whole entry, unmodified, looked up): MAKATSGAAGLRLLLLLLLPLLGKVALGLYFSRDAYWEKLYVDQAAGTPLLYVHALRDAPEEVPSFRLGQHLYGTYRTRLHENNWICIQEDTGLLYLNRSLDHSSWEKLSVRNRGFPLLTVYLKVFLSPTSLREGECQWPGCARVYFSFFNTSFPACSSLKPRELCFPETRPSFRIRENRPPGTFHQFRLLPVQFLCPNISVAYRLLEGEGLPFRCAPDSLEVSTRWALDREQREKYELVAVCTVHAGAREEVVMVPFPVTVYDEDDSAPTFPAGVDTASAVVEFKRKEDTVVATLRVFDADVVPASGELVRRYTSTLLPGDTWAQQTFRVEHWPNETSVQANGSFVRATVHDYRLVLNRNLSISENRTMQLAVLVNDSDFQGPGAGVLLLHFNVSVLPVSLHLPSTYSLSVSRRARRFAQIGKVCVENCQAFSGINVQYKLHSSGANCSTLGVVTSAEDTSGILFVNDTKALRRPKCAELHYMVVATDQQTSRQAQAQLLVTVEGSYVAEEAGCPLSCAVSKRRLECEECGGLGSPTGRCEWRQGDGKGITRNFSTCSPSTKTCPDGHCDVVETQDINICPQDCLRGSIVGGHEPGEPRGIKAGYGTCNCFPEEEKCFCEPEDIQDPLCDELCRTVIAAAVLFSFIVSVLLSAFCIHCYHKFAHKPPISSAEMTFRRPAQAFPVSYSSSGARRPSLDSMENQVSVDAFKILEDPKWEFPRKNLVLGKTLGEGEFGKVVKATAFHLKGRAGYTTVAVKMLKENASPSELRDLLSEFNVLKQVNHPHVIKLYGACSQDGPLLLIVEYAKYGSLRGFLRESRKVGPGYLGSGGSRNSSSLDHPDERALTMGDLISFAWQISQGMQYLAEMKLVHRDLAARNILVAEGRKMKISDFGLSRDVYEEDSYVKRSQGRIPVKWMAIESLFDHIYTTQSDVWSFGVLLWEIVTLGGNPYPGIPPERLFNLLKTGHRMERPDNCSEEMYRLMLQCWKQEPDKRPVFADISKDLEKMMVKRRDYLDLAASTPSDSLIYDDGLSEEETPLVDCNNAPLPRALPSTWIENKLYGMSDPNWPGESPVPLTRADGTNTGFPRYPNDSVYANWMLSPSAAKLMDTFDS
Chain of UniProt P08631 (whole entry, looked up): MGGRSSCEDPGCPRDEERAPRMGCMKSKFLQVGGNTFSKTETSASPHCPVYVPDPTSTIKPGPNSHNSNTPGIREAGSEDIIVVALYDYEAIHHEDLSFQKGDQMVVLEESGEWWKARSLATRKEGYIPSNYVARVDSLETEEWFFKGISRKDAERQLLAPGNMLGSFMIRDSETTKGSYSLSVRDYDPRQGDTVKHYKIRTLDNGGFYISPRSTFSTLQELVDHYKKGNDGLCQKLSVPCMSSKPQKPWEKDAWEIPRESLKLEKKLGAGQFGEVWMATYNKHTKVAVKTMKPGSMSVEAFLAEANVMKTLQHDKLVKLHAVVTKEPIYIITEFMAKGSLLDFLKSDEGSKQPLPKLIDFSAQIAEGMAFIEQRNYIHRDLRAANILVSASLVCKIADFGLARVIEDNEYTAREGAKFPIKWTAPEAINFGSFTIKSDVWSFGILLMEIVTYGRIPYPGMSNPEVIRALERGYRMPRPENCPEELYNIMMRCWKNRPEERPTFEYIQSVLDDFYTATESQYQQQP
Chain of UniProt P51812 (whole entry, looked up): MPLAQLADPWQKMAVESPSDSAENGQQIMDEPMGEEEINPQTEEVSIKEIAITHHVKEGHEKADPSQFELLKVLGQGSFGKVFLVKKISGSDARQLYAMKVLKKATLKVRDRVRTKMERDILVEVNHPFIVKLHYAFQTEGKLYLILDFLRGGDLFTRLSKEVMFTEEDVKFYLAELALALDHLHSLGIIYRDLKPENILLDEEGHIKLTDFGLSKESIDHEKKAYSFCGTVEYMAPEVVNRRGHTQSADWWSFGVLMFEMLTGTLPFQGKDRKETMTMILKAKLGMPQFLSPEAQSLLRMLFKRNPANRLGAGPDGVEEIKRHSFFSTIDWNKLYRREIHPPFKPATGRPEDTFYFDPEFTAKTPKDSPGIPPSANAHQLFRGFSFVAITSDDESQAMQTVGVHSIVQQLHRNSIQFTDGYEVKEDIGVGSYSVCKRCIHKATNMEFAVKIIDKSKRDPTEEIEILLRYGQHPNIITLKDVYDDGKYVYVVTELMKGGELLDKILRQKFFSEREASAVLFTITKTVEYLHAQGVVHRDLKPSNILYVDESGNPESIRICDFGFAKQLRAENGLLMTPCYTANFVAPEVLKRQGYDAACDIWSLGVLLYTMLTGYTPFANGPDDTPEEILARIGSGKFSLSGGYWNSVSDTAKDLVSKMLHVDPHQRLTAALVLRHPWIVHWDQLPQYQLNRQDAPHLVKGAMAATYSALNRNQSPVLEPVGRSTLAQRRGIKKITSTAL
Chain of UniProt P29317 (whole entry, looked up): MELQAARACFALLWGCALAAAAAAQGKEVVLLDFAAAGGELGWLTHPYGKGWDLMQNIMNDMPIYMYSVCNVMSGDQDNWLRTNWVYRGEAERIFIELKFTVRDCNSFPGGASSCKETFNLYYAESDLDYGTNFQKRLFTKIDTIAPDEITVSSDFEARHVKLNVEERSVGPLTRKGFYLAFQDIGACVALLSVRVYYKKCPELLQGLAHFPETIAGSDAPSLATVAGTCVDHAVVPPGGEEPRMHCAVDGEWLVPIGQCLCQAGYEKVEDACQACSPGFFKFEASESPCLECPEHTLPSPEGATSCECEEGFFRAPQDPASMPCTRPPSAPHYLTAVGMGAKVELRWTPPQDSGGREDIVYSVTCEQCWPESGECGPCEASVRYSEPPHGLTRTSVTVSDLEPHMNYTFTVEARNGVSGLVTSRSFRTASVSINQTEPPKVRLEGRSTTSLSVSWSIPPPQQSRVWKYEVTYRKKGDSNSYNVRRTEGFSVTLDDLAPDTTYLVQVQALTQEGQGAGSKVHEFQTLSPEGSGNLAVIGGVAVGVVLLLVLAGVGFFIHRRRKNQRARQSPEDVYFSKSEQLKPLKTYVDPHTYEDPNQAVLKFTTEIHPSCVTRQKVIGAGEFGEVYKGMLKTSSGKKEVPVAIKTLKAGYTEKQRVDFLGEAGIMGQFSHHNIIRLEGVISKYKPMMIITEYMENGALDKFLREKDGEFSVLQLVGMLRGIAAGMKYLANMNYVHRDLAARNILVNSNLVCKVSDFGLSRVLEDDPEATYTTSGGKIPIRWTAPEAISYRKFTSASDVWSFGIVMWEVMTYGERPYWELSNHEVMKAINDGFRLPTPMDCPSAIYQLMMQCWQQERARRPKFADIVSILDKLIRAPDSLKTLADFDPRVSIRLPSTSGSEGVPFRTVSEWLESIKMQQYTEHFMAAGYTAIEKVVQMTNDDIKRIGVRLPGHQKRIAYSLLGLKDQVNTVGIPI
Chain of UniProt P19784 (whole entry, looked up): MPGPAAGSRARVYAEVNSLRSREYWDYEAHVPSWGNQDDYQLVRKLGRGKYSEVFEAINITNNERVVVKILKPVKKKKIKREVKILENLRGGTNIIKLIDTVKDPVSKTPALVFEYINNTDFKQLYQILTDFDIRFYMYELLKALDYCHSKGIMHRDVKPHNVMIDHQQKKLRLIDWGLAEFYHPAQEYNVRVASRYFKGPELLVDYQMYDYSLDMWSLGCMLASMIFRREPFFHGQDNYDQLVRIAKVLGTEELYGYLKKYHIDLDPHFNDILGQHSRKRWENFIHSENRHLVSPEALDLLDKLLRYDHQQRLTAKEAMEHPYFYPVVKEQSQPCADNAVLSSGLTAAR

Series 1 — read-out: enzyme activity; action: inhibitor; tested at: 10 µM
Target: Calcium/calmodulin-dependent protein kinase type II subunit alpha (CAMK2A, Homo sapiens, UniProt Q9UQM7)
Chain of UniProt Q9UQM7 (whole entry, looked up): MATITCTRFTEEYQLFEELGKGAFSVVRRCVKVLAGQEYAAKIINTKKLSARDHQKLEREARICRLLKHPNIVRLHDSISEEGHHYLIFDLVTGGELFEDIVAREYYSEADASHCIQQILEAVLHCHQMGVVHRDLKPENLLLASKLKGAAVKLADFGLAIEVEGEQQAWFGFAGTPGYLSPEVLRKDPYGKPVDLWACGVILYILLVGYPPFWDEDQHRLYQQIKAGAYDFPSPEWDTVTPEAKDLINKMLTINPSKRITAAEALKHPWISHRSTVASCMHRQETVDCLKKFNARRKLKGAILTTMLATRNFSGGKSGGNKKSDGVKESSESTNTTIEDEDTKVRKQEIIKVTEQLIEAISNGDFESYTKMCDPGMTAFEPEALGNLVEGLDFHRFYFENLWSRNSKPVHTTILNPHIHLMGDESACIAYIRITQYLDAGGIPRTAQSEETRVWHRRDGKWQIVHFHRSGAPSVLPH
| Structure (SMILES) | inhibition [%] |
| --- | --- |
| O[C@H]1[C@H](O)[C@@H](O)[C@H](O)[C@@H](O)[C@@H]1O | 52 |
| CCN(CC)C(=O)c1cccnc1 | -11 |
| CCCCCCCC/C=C\CCCCCCCCCCCCCC(=O)O | 11 |
| Cc1c(OCC(F)(F)F)ccnc1C[S+]([O-])c1nc2ccccc2[nH]1 (centres unmarked) | -3 |
| C#C[C@]1(O)CC[C@H]2[C@@H]3CCC4=CCCC[C@@H]4[C@H]3C(=C)C[C@@]21CC | -6 |
| Cc1onc(-c2c(F)cccc2Cl)c1C(=O)N[C@@H]1C(=O)N2[C@@H]1SC(C)(C)[C@@H]2C(=O)O | -8 |
| C=C[C@@]1(C)CC[C@H]2C(=CC[C@@H]3[C@]2(C)CCC[C@@]3(C)C(=O)O)C1 | 6 |
| CN(C)[C@@H](CCOc1cccc2ccccc12)c1ccccc1 | -5 |
| C[C@H](CC[C@@H](O[C@@H]1O[C@H](CO[C@@H]2O[C@H](CO)[C@@H](O)[C@H](O)[C@H]2O)[C@@H](O)[C@H](O)[C@H]1O[C@@H]1O[C@H](CO)[C@@H](O)[C@H](O)[C@H]1O)C(C)(C)O)[C@H]1CC[C@@]2(C)[C@@H]3CC=C4[C@@H](CC[C@H](O[C@@H]5O[C@H](CO)[C@@H](O)[C@H](O)[C@H]5O)C4(C)C)[C@]3(C)[C@H](O)C[C@]12C | -14 |
| CN(C(=O)CN(CCO)CC(=O)N(C)C(C)(C)Cc1ccccc1)C(C)(C)Cc1ccccc1 | -3 |
| O=C[C@H](O)[C@@H](O)[C@H](O)[C@H](O)CO[C@H]1O[C@H](CO[C@H]2O[C@H](CO)[C@@H](O)[C@H](O)[C@H]2O)[C@@H](O)[C@H](O)[C@H]1O | -3 |
| CCC(Cc1c(I)cc(I)c(N)c1I)C(=O)O (centres unmarked) | -6 |
| NS(=O)(=O)c1ccc(N2CCCCS2(=O)=O)cc1 | -18 |

Series 2 — action: inhibitor; tested at: 1 µM
SMILES: CO[C@@H]1[C@H](N(C)C(=O)c2ccccc2)C[C@H]2O[C@]1(C)n1c3ccccc3c3c4c(c5c6ccccc6n2c5c31)C(=O)NC4
| target | test | inhibition [%] |
| --- | --- | --- |
| Mast/stem cell growth factor receptor Kit (KIT, Homo sapiens, UniProt P10721, L576P) | enzyme activity | 100 |
| Serine/threonine-protein kinase Nek7 (NEK7, Homo sapiens, UniProt Q8TDX7) | enzyme activity | 0 |
| Ephrin type-A receptor 2 (EPHA2, Homo sapiens, UniProt P29317) | enzyme activity | 0 |
| Serine/threonine-protein kinase haspin (HASPIN, Homo sapiens, UniProt Q8TF76) | enzyme activity | 20 |
| Ankyrin repeat and protein kinase domain-containing protein 1 (ANKK1, Homo sapiens, UniProt Q8NFD2) | enzyme activity | 1 |
| Rho-associated protein kinase 2 (ROCK2, Homo sapiens, UniProt O75116) | enzyme activity | 28 |
| Ribosomal protein S6 kinase alpha-3, C-terminal kinase domain (RPS6KA3, Homo sapiens, UniProt P51812) |  | 7 |
| Proto-oncogene tyrosine-protein kinase receptor Ret (RET, Homo sapiens, UniProt P07949, M918T) | enzyme activity | 95 |
| Hormonally up-regulated neu tumor-associated kinase (HUNK, Homo sapiens, UniProt P57058) | enzyme activity | 0 |
| Casein kinase II subunit alpha' (CSNK2A2, Homo sapiens, UniProt P19784) | enzyme activity | 12 |

Series 3 — read-out: enzyme activity; action: inhibitor; tested at: 0.5 µM; baseline: control
Target: Maternal embryonic leucine zipper kinase (MELK, Homo sapiens, UniProt Q14680)
Chain of UniProt Q14680 (whole entry, looked up): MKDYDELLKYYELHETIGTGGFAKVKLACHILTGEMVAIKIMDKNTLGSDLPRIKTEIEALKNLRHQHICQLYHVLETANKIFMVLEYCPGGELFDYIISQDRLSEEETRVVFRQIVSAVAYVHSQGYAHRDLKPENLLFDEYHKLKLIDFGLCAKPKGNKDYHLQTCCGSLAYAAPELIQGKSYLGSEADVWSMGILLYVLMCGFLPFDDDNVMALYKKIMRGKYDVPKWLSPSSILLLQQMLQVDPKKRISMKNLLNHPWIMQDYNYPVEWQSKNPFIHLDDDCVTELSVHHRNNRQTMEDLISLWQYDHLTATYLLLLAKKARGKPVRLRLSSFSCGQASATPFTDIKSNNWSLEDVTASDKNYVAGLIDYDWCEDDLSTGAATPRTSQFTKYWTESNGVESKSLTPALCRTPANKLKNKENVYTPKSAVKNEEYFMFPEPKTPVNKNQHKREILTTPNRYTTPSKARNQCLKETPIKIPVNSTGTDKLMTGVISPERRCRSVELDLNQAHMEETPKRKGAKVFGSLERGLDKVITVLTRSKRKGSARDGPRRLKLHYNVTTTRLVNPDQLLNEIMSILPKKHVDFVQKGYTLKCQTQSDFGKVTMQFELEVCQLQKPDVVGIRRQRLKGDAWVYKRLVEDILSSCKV
| Compound | remaining activity [%] |
| --- | --- |
| Nc1ccc2ncnc(NCCc3ccc(Oc4ccccc4)cc3)c2c1 | 96.8 |
| CC(C)[C@H](CO)Nc1nc(Nc2cc(N)cc(Cl)c2)c2ncn(C(C)C)c2n1 | 51.5 |
| N#CC(C#N)=C(N)/C(C#N)=C/c1ccc(O)cc1 | 101 |
| Cn1c2ccccc2c2c3c(c4c5ccccc5n(CCC#N)c4c21)CNC3=O | 21.1 |
| CO[C@H]1C[C@@H]2CC[C@@H](C)[C@@](O)(O2)C(=O)C(=O)N2CCCC[C@H]2C(=O)O[C@H]([C@H](C)C[C@@H]2CC[C@@H](O)[C@H](OC)C2)CC(=O)[C@H](C)/C=C(\C)[C@@H](O)[C@@H](OC)C(=O)[C@H](C)C[C@H](C)/C=C/C=C/C=C/1C | 97.8 |
| O=C1NC(=O)C(c2cn(CCCn3ccnc3)c3ccccc23)=C1Nc1ccccc1 | 101 |
| O=C(Nc1cccc(Nc2cc(Nc3cccc(C(F)(F)F)c3)ncn2)c1)C1CC1 | 104 |
| CN(C)c1ccc(C=C2C(=O)Nc3ccccc32)cc1 | 89.3 |
| COc1ccc(C(=O)Nc2sc3c(c2C(N)=O)CCCC3)cc1OC | 46 |
| NCCNc1ncc(C(N)=O)c(Nc2cccc(C(F)(F)F)c2)n1 | 95.8 |
| Cc1ccc(NC(=O)c2ccc(CN3CCN(C)CC3)cc2)cc1Nc1nc(-c2cccnc2)cs1 | 84.8 |
| CCOC(=O)c1c(C)[nH]c(/C=C2\C(=O)Nc3ccccc32)c1C | 87.4 |
| Nc1[nH]nc2nc3ccccc3nc12 | 92.9 |
| O=C(CCCc1ccc(-c2ccccc2F)cc1)Nc1ccc(O)cc1 | 95.5 |
| Cc1ccc(Nc2nccc(N(C)c3ccc4c(C)n(C)nc4c3)n2)cc1S(N)(=O)=O | 87.5 |

Series 4 — read-out: cell-free assay; technique: competition with immobilised ligand; tested at: 1 µM
Structure (SMILES): CN([C@@H]1CCc2c(CC(=O)O)c3ccccc3n2C1)S(=O)(=O)c1ccc(F)cc1
| target | remaining binding |
| --- | --- |
| Epidermal growth factor receptor (EGFR, Homo sapiens, UniProt P00533, del746-750) | 100% |
| Tyrosine-protein kinase HCK (HCK, Homo sapiens, UniProt P08631) | 95% |
| Myotonin-protein kinase (DMPK, Homo sapiens, UniProt Q09013) | 100% |
| Serine/threonine-protein kinase SBK1 (SBK1, Homo sapiens, UniProt Q52WX2) | 100% |
| Aurora kinase C (AURKC, Homo sapiens, UniProt Q9UQB9) | 100% |
| Maternal embryonic leucine zipper kinase (MELK, Homo sapiens, UniProt Q14680) | 93% |
| Myosin light chain kinase 2, skeletal/cardiac muscle (MYLK2, Homo sapiens, UniProt Q9H1R3) | 100% |
| Receptor-type tyrosine-protein kinase FLT3 (FLT3, Homo sapiens, UniProt P36888, D835H) | 91% |
| Dual specificity mitogen-activated protein kinase kinase 4 (MAP2K4, Homo sapiens, UniProt P45985) | 100% |

For quick reference, copied from above (series 4):
| target | remaining binding |
| --- | --- |
| Epidermal growth factor receptor (EGFR, Homo sapiens, UniProt P00533, del746-750) | 100% |
| Tyrosine-protein kinase HCK (HCK, Homo sapiens, UniProt P08631) | 95% |
| Myotonin-protein kinase (DMPK, Homo sapiens, UniProt Q09013) | 100% |
| Serine/threonine-protein kinase SBK1 (SBK1, Homo sapiens, UniProt Q52WX2) | 100% |
| Aurora kinase C (AURKC, Homo sapiens, UniProt Q9UQB9) | 100% |
| Maternal embryonic leucine zipper kinase (MELK, Homo sapiens, UniProt Q14680) | 93% |
